# Assay results from different studies.
# Each numbered part is a random draw from the data of one study; scales do not carry over between parts. Changes are numbered by the printed parent chain.

# Sample 1
# Target: ABI1, truncated, D143A, DHFR fusion (Arabidopsis thaliana)
# Method: DHFR PCA, deep sequencing
# Medium: yeast
# Setting: methotrexate growth selection, single substitutions
# With: (+)-ABA 17 µM
# Baseline: wild-type fitted maximum
# Direction: higher = stronger binding
# Starting sequence: PYL1, truncated, DHFR fusion (Arabidopsis thaliana); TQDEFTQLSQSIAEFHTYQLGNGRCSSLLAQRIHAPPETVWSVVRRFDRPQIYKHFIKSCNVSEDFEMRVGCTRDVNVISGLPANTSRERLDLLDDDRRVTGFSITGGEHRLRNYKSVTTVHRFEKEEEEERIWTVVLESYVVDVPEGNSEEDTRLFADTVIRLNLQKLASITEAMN
Substitution,relative binding score [%]
I172P,6.42
A35K,-10.4
I12T,24.2
E130L,77.3
K126I,88.2
N85K,94.7
C72W,44.6
H55E,81.5
S11M,72.8
V43G,-5.33
H122Y,12.8
V40S,5.89
V142I,81.8
E147N,73.8
Q7M,85.9
E67V,89.6

# Sample 2
# Target: Centromere-binding protein 1, full length, N-terminal tag (CBF1, Saccharomyces cerevisiae, UniProt P17106, residues 1-351)
# Chain of UniProt P17106 (whole entry, looked up): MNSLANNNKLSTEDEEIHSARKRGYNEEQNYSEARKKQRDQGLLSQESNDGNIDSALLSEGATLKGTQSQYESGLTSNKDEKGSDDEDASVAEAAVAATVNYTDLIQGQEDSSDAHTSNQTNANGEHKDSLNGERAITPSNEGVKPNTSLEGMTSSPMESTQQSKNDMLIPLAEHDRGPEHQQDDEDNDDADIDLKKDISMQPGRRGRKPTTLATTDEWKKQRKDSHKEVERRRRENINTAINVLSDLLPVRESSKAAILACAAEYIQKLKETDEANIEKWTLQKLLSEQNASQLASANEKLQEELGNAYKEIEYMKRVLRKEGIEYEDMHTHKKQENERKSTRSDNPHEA
# Method: protein-binding microarray
# Molecule type: double-stranded DNA, one strand shown
# Medium: in vitro
# Concentration: 0.8 µM
# Setting: whole 60-bp probe, no competitor
# Direction: higher = stronger binding
# Shared flanks, not repeated: … GTCTTGATTCGCTTGACGCTGCTG
Oligonucleotide,fluorescence intensity
CTACTGAGAGCGGGTCACGGCCCGCTGAAGGGATTC,592 a.u.
GAAACTGTTGAAGTTGGCATCACGGGTGGATTCTAG,772 a.u.
GAAAAAGGCAAAGATCACATCTTAACCTTTTTGTAG,515 a.u.
CTAACTCTGGTGAGACGCGTCACGGTAAAAAAATTC,909 a.u.
CCTAACTACTATAAAGATGTGATATAGCTTCGTACA,550 a.u.
GAAAAAATATATGCCCACGTTTGGAGTCATCAATAG,569 a.u.
GAATACAAAACTAACCACGTGCAGCATCGTCTTTAG,7730 a.u.
CTATTGGTTTTAACTCTGGTGACTTCAAGAAGGTTC,536 a.u.
GAACCCTTTTTGGTGCACGTTCGCTCGGCGAGTTAG,656 a.u.
GAAAAATTGTAACACCACCTTGAAGTGCATTTCTAG,522 a.u.
CCTAACTACTATACGTGACTGTTATAGCTTCGTACA,758 a.u.
CTATATTCCAGCCTTCCCACCACGTAGCTATTATTC,541 a.u.
CTATTACTTCCCGATCTCACATGTTGCCTTCAATTC,633 a.u.
GAAACAACAAAAATTTGCGTGATTGATAGAAGGTAG,539 a.u.
GAAACGAAAAGTGTAGGCGTGCCACAAATGTCATAG,588 a.u.
GAAAAATTACGGTGTGACGTAGATCTGAATTATTAG,588 a.u.
CTATACCTTGGAGCTAGTGTGATCTTGTTGATATTC,530 a.u.
CCTAACTACTATAAGATCGTGACATAGCTTCGTACA,712 a.u.
CTATTACCAGTATACCGTCACATGCGGTGTAACTTC,1790 a.u.

# Sample 3
# Target: RNA binding protein fox-1 homolog 2, RRM domain, GST-SBP tag (RBFOX2, Homo sapiens, UniProt O43251-10, residues 100-194)
# Method: RNA Bind-n-Seq
# Molecule type: RNA
# Medium: in vitro
# Concentration: 365 nM
# Setting: natural RNA segment, single round, ends assumed
# Baseline: no-protein control
# Direction: higher = stronger binding
# Shared flanks, not repeated: GGGAGUUCUACAGUCCGACGAUC … UGGAAUUCUCGGGUGCCAA
# Construct (chain): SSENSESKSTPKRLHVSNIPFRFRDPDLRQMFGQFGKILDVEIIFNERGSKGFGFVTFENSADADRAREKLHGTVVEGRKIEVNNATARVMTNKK
Oligonucleotide,RBNS enrichment (R)
AGAAUACAAGUGCACAGGCGGCAACUCCUUACUUCCAGCAAAAUUGAAACUGCUGUCUCUGAAACUCUUCCUCCAUUAGAGCGCUCCAGUAACCCAUGAAGGCCCACAGC,0.573
GUAGACCAUUGAGCGAUGAAUGCACACCUGUAGUAGCCCAGGACCAGCUGUGGUGGCUAAAGGGAAUAUGUUAAUUAAGCAAGAGGUUCUUUUCUAAAAGUGGUAUCUGU,0.599
GUGUUAAAACGAUCUUUCAGAUUUAGAGUGACUAUGUAAGAAUUUAGGAUUUCCUCUUUUCCAGGCACAUUGUAAACUGUGUCUACAGUUUAUCCAUAUAACUUCUCUUC,0.236
UUUUGUUGUUUUGUUGUUUUGUUUUAAUCCUAUGUGACAAUUCCAACUAUGCGGUUACCCUCUGAGGAUAAGUUCCUCAGCCCGGGGUUCUUUUAUAUGCUGUGUCCUUU,0.419
GUCUUAGGCUCAUUUGUUCCUUACCAUUUUGUCGAGGUUUUUUGGGGGGUAGUGACAGAAUCCCUGGAAGAGUCUUGAGCCACUUCCUGCUGGGGUUUCUAGUAAAGUCU,0.807
ACUCACAGGGGAUUCUCUGCAUUCAUCCCGGGUCUGUCCUCUCUGACUCUGCUACAUACAGGGUCCAUGUGGGCUGAUAACUAGUACCAGGGGCCUGCUGCAUGCUACGC,13.2
UAAAAUUAUUCCCAAAAGUGUUUCUCCUAAGAGUGCAGUUCCCAUGAGUCACUUCCUGAACCCAUUGACCAAAGGUGGACAGAGACAAUCCUGUAGACCUUGACAUUCAG,0.294
ACAUACAGUUGGCUGCUUAACAGACUCUCUAGCCGUUCAUUUUUGUGACGUCUCUUUGUUAACCUAAGUAUAUCUAUUUUCGGCAAUAAGGUAAGGACGGCCGUGUUUUG,0.486

# Sample 4
# Target: CCND3, cyclin fold, Cln2 fusion (human)
# Method: yeast growth competition, sequencing
# Medium: yeast
# Setting: weak parent motif
# Baseline: not given
# Direction: higher = stronger binding
# Starting sequence: RB1 docking peptide (human); PKPLKKLRFDIEG; partner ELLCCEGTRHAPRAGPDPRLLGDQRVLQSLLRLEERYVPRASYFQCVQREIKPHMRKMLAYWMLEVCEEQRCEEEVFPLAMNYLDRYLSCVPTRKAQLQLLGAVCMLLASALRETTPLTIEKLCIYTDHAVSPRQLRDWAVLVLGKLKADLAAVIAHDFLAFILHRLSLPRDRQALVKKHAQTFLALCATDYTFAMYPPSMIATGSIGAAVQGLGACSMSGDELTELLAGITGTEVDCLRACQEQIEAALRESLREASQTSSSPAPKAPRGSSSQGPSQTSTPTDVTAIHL
Substitution,normalised enrichment score
I11P,0.116
L7I,0.0918
F9Q,0.2
R8P,0.154
K5W,0.0904
F9P,0.0419
G13K,0.24
P3M,0.136
K6Q,0.0335
E12L,0.263
K6L,0.0855
L7D,0.0143
L4D,0.278
L7S,0.174
G13L,0.134
K2G,-0.000259
R8H,0.119
D10K,0.211
F9H,0.0967

# Some of these lines once more (sample 2):
Oligonucleotide,fluorescence intensity
GAAAAATTACGGTGTGACGTAGATCTGAATTATTAG,588 a.u.
CTATACCTTGGAGCTAGTGTGATCTTGTTGATATTC,530 a.u.
CTATTGGTTTTAACTCTGGTGACTTCAAGAAGGTTC,536 a.u.
CCTAACTACTATAAGATCGTGACATAGCTTCGTACA,712 a.u.
GAAAAAATATATGCCCACGTTTGGAGTCATCAATAG,569 a.u.
CTAACTCTGGTGAGACGCGTCACGGTAAAAAAATTC,909 a.u.
